Assay results collected from several papers.
Lines come from different studies, so protocols differ. Several values in a cell are separate wells, animals, samples, runs or records. ± gives the spread as reported.
Chain of UniProt P16257 (whole entry, looked up): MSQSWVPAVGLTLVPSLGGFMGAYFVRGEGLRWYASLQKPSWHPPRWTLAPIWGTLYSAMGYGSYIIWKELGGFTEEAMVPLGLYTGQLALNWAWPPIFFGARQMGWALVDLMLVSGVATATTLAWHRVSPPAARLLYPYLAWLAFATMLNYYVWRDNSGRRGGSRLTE
Chain of UniProt P11362 (whole entry, unmodified, looked up): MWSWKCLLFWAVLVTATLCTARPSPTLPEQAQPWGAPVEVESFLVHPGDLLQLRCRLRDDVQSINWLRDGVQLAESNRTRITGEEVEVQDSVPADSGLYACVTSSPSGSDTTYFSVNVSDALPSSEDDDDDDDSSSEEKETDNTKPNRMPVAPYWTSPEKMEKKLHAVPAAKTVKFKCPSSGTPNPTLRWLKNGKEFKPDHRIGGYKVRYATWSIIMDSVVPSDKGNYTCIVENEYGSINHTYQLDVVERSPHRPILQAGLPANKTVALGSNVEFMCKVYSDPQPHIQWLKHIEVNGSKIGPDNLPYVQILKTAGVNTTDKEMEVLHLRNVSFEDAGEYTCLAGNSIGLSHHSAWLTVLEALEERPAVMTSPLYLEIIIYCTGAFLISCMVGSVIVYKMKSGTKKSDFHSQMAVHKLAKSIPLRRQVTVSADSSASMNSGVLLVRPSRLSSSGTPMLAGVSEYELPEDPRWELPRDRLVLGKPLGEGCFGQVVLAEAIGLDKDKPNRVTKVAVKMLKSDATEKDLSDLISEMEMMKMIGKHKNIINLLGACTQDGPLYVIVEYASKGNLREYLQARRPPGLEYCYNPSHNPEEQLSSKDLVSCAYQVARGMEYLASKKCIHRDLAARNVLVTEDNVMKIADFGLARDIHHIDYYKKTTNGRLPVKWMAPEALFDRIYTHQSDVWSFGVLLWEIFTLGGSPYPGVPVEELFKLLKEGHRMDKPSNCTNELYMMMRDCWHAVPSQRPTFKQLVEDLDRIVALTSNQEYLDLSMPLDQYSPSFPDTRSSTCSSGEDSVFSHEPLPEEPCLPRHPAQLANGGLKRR
Chain of UniProt P46734 (whole entry, looked up): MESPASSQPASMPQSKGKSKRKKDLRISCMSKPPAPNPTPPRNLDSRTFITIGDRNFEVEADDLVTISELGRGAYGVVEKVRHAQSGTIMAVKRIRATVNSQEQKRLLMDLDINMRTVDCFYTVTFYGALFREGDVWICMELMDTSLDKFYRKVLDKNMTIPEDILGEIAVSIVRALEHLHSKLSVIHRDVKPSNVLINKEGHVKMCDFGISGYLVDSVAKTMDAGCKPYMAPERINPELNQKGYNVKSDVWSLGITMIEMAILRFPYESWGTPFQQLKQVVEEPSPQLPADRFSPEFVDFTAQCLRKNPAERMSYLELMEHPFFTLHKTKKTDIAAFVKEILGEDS

COc1ccccc1-c1n[nH]c2nc(N[C@H]3CC[C@H](NS(=O)(=O)CC(C)C)CC3)ncc12  relative abundance (bead binding, competition bead pull-down, item: LINJ.28.2430; Leishmania donovani extract; 10 µM; relative to: vehicle): 0.96
Cc1ccc(N2CC3CC(C2)N3C)cc1C(=O)NC1(c2ccc3c4c(cccc24)C(=O)N3C)CC1  inhibition (Equine-PLpro; enzyme activity, inhibitor; 100 µM): 110% and 98.6%
CS(C)(=O)=Nc1ccc(-c2ccc(-c3nc4cc(O[C@@H]5CO[C@H]6[C@@H]5OC[C@H]6O)[nH]c4cc3F)cc2)cc1  inhibition (Tspo (Rattus norvegicus, UniProt P16257); ligand displacement, radioligand; 10 µM): 75%
Cc1ccc(NS(=O)(=O)c2c(C(=O)N3CCCCCC3)c(C)n(C)c2C)c(Cl)c1  infection (Fowlpox virus; viral infection; CEF; 0.015 µM; relative to: untreated): 95.4% and 106% and 81.1%
Cc1cc(Oc2nc(N3CC[C@@H](c4ccncc4)C3)ncc2F)[nH]n1  normalised growth (Mycobacterium tuberculosis; THP-1, H37Rv non-replicating; 0.9489 µM, day 4): 5.66% and 9.43%
CN(C)[C@H]1C[C@@]23CC[C@@]4(O2)C(=CC[C@]2(C)[C@@H](c5ccc6ccncc6c5)CC[C@H]24)C=C3[C@@H](O)[C@@H]1O  inhibition (MAP2K3 (Homo sapiens, UniProt P46734); ATP probe labelling, inhibitor, KiNativ profiling; 1 µM): 7.7%
O=C1NC2(CC2)COc2ncc(F)cc2[C@H]2COCCN2c2ccn3ncc1c3n2  organ-to-brain weight ratio (Sprague-Dawley rat, female, uterus; oral, 2.5 mg/kg/day, 4 weeks, end of treatment): 22.9 ± 4.81%
O=C1NC(=O)c2c1c1cc(F)c[n+]3c1c1c2c2cc(O)ccc2[n]1[Ru-4]312([N]=C=S)[S+]3CC[S+]1CC[S+]2CC3 (stereo not drawn)  remaining activity (FGFR1 (Homo sapiens, UniProt P11362, V561M); enzyme activity; 100 nM, human enzyme, together with: 10 µM ATP; relative to: untreated): 16%
CN1C(=O)C(C2C3=C(CC(C)(C)CC3=O)Oc3ccc([N+](=O)[O-])cc32)C(=O)N(C)C1=O (stereo not drawn)  mRNA level (mouse preadipocytes; qPCR, item: aP2; IC20, 14 days, adipogenic induction; relative to: untreated cells): decreased
COc1ccccc1-c1n[nH]c2nc(NC3CCN(C(=O)Cc4ccc(F)cc4F)CC3)ncc12  relative abundance (bead binding, competition bead pull-down, item: LINJ.25.1790; Leishmania donovani extract; 10 µM; relative to: vehicle): 0.89
C#CCN1C(=O)C(CC#C)(C(=O)OCC)Oc2ccccc21 (stereo not drawn)  inhibition (L02; cell growth or viability, CCK-8; 3.13 µM, 72 h): 0.39%
CC[C@H](C)[C@H](NC(=O)[C@H](CO)NC(=O)[C@H](Cc1ccc(O)cc1)NC(=O)[C@H](Cc1ccc(O)cc1)NC(=O)[C@H](CC(N)=O)NC(=O)CNC(=O)[C@H](CO)NC(=O)[C@H](Cc1ccc(O)cc1)NC(=O)[C@H](CO)NC(=O)[C@H](CO)NC(=O)[C@H](CC(N)=O)NC(=O)COCCOCCNC(=O)CN1CCN(CC(=O)O)CCN(CC(=O)O)CCN(CC(=O)O)CC1)C(=O)N[C@@H](CC(C)C)C(N)=O [copper-64 labelled]  maximum pancreas uptake (dynamic PET; tamoxifen-induced PDAC mouse model, pancreas; 4.5 min, CLDN4-expressing tumours): 20.4 %IA/cc
Cc1cc(C(=O)Nc2nc3cccc(C)c3n2[C@H]2CCCCN(C(=O)/C=C/CN(C)C)C2)ccn1  cell growth (Trypanosoma brucei brucei; 2T1 parental; 10 x EC50, 48 h; relative to: time 0 h): 15.3% and 16.3% and 17.3%
C1=[N+]2CCCC[N+]3=Cc4ccc5[n]4[Au-]23[n]2c1ccc2-c1nc2ccccc2nc1-5.F[P-](F)(F)(F)(F)F  IC50 (IGROV-1; NCI60 five-dose screen): 4.7 µM
CC(C)(C)C(=O)OCOP(=O)(OCOC(=O)C(C)(C)C)C1CCCN(O)C1=O (stereo not drawn)  log TGI (HT-29): -5.07 log M

A few entries again:
Cc1cc(C(=O)Nc2nc3cccc(C)c3n2[C@H]2CCCCN(C(=O)/C=C/CN(C)C)C2)ccn1  cell growth (Trypanosoma brucei brucei; 2T1 parental; 10 x EC50, 48 h; relative to: time 0 h): 15.3% and 16.3% and 17.3%
CN1C(=O)C(C2C3=C(CC(C)(C)CC3=O)Oc3ccc([N+](=O)[O-])cc32)C(=O)N(C)C1=O (stereo not drawn)  mRNA level (mouse preadipocytes; qPCR, item: aP2; IC20, 14 days, adipogenic induction; relative to: untreated cells): decreased
